{"data": "Measured values from different studies", "target": "BDNF/NT-3 growth factors receptor (NTRK2, Homo sapiens, UniProt Q16620)", "note": "Lines come from different studies, so protocols differ. Values joined by “and” are separate records of one study, mostly repeats; a detail may differ.", "sequence of UniProt Q16620 (whole entry, looked up)": "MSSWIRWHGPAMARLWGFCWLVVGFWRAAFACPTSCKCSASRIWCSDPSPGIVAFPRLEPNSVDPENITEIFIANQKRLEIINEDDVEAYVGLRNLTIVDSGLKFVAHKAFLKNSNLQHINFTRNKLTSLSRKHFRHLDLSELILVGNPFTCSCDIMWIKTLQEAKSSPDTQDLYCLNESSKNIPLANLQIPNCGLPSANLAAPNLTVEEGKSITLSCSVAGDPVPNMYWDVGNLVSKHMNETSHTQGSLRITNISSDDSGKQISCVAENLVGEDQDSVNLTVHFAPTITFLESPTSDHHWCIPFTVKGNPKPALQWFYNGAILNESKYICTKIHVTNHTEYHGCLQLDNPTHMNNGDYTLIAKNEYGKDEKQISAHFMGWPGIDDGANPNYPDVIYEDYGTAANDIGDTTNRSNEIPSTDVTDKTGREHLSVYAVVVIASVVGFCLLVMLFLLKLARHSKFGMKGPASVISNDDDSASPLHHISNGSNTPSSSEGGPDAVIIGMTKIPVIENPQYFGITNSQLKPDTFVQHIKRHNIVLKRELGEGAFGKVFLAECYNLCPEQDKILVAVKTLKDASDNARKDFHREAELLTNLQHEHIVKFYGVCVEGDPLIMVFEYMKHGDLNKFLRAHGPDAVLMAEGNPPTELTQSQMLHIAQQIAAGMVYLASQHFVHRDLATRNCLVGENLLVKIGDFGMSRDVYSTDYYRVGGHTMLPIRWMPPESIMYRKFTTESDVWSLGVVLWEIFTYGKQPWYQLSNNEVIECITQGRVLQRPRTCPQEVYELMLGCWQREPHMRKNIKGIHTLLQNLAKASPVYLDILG"}
{"SMILES": "NCc1ccc(-c2cc(=O)c3ccc4[nH]c(C(F)(F)F)nc4c3o2)cc1", "test": "agonist, MTT", "conditions": "concentration not given, with: staurosporine", "endpoint": "antiapoptotic activity", "value": "decreased"}
{"SMILES": "CNC(=O)C[C@H](Cc1ccc(C#N)cc1)NC(=O)c1cc(-c2ccc(CN[C@H](C)c3ccc(C)cc3)o2)ccc1Cl", "test": "enzyme activity, inhibitor", "conditions": "1 µM", "endpoint": "activity vs control", "value": "106%"}
{"SMILES": "Cc1cnc2nc1Nc1cccc(c1)COC/C=C/COCc1cc(ccc1OCCN1CCOCC1)N2", "test": "binding, competition with immobilised ligand", "conditions": "0.1 µM", "endpoint": "remaining binding", "value": "85%"}
{"SMILES": "Cc1cc(NC(=O)Nc2cc(C(F)(F)F)ccc2F)ccc1C(=O)Nc1ccc2[nH]ncc2c1", "test": "enzyme activity, inhibitor, FRET", "conditions": "1 µM", "endpoint": "inhibition", "value": "22.9%"}
{"SMILES": "COc1cc(Nc2nc(C)cc(-c3cnn4nc(OC)ccc34)n2)cc(C(F)(F)F)c1", "test": "binding, competition with immobilised ligand", "conditions": "1 µM", "endpoint": "remaining binding", "value": "96%"}
{"SMILES": "O=C(Nc1cc(C(F)(F)F)ccc1F)Nc1ccc(C(=O)Nc2ccc3[nH]ncc3c2)cc1C(F)(F)F", "test": "enzyme activity, inhibitor, FRET", "conditions": "1 µM", "endpoint": "inhibition", "value": "27.7%"}
{"SMILES": "C=CC(=O)N1CCc2ccc(-n3c(=O)ccc4cnc5ccc(-c6cnn(C)c6)cc5c43)cc21", "test": "KINOMEscan", "conditions": "1 µM", "scale": "baseline: DMSO control", "endpoint": "remaining binding", "value": "97%"}
{"SMILES": "O=C(Nc1ccc(C(=O)Nc2ccc3[nH]ncc3c2)c(Cl)c1)Nc1cc(C(F)(F)F)ccc1F", "test": "enzyme activity, inhibitor, FRET", "conditions": "1 µM", "endpoint": "inhibition", "value": "12.2%"}
{"SMILES": "CCn1nc(Cl)c2c1-c1cnc(N)c(c1)O[C@H](C)c1cc(F)ccc1-c1nn(C)cc1C2", "test": "receptor phosphorylation", "system": "NG", "endpoint": "Hill slope", "value": 1.98}
{"SMILES": "Nc1ncc(-c2cc(-c3cnn(CC(F)(F)F)c3)ncc2F)nc1C(=O)NC1CNCC(F)C1 (stereo not shown)", "test": "enzyme activity", "conditions": "1 µM", "scale": "baseline: DMSO control", "endpoint": "remaining activity", "value": "91%"}
{"SMILES": "CCN1CCN(Cc2ccc(C(=O)Nc3ccc(C)c(NCc4cnc5[nH]ccc5c4OC)c3)cc2C(F)(F)F)CC1", "test": "binding, competition with immobilised ligand", "conditions": "1 µM", "endpoint": "remaining binding", "value": "2.3%"}
{"SMILES": "CNC1C[S+]2CC[S+]3CC[S+](C1)[Ru-4]321([N]=C=S)[n]2c3ccc(OC)cc3c3c4c(c5cc(F)c[n+]1c5c32)C(=O)NC4=O (stereo not shown)", "test": "KinomeScan", "conditions": "0.1 µM", "scale": "baseline: untreated", "endpoint": "remaining binding", "value": "100%"}
{"SMILES": "C=CC(=O)Nc1cccc(-c2cnc3[nH]cc(C(=O)NC(C)(C)C)c3n2)c1", "test": "kinase activity", "conditions": "0.1 µM", "endpoint": "inhibition", "value": "9% and 3%"}
{"SMILES": "O=C(Nc1cc(C(=O)Nc2ccc3[nH]ncc3c2)ccc1F)Nc1cc(C(F)(F)F)ccc1F", "test": "enzyme activity, inhibitor, FRET", "conditions": "1 µM", "endpoint": "inhibition", "value": "14.9%"}
{"SMILES": "CCN1CCN(Cc2ccc(NC(=O)c3ccc(C)c(NC(=O)c4cncc(-c5cnn(C)c5)c4)c3)cc2C(F)(F)F)CC1", "test": "binding, competition with immobilised ligand", "conditions": "1 µM", "endpoint": "remaining binding", "value": "53%"}
{"SMILES": "Nc1ncc2c(n1)-c1c([nH]c3ccc(C4=CCOCC4)cc13)CCC2", "test": "binding, competition with immobilised ligand", "conditions": "1 µM", "endpoint": "remaining binding", "value": "64%"}
{"note": "Repeated from above:"}
{"SMILES": "Nc1ncc2c(n1)-c1c([nH]c3ccc(C4=CCOCC4)cc13)CCC2", "test": "binding, competition with immobilised ligand", "conditions": "1 µM", "endpoint": "remaining binding", "value": "64%"}
{"SMILES": "NCc1ccc(-c2cc(=O)c3ccc4[nH]c(C(F)(F)F)nc4c3o2)cc1", "test": "agonist, MTT", "conditions": "concentration not given, with: staurosporine", "endpoint": "antiapoptotic activity", "value": "decreased"}
